# Assay results pooled from the literature.
# Compare with care: the assays were run in different laboratories. ± marks the error that the study gave.
# actin G-actin: actin G-actin, pyrene label (Oryctolagus cuniculus, UniProt P68135)
# ACTA1 filaments: ACTA1 filaments (UniProt P68135)
# B1: sevA 1-117 (Dictyostelium discoideum, UniProt P10733); chain MIKNRKLDITSTNVAGIGTDLDKKCRLDAASTEAQWKGVGQAPGLKIWRIENFKVVPVPESSYGKFYDGDSYIILHTFKEGNSLKHDIHFFLGTFTTQDEAGTAAYKTVELDDFLGG
Molecule,partner,test,test system,setting,how to read,endpoint,result
"Lmod2 (Mus musculus, UniProt Q3UHZ5)","ACTA1 G-actin, pyrene label (UniProt P68135)","pyrene-actin polymerization nucleation, activator",,"5 nM, with: G-actin 1.15 µM, pCa",higher = shorter lag,lag time reduction,5 fold
"sevA (Dictyostelium discoideum, UniProt P10733)",actin G-actin,"actin polymerization, inhibitor",,"50 nM, 14 h, capping, with: EGTA","baseline: control, higher = more F-actin",F-actin at steady state,102%
"mcs1 (Ustilago maydis, UniProt Q4P9K9)","ACTA1 F-actin, rhodamine-phalloidin (UniProt P68135)",TIRF microscopy,,,,time bound to F-actin,7.1 ± 5.7 s
GSN M517R (Homo sapiens),"actin, pyrene label (Oryctolagus cuniculus, UniProt P68135)","F-actin severing, fluorimetric pyrene-actin assay",,"20 °C, without Ca2+, with: GSN 0.25 µM",,depolymerization rate,0.78 h⁻¹
QKKTKKNLKKFLTRRPTLQAVREKGYIKDQVF (Arhgap12 RPEL motif (Mus musculus)),"ACTA1 mature (Oryctolagus cuniculus, UniProt P68135)",BLI,,,,Kd,2.85 µM
"espin residues 339-end, N-terminal His6 (rat)","actin monomer (Oryctolagus cuniculus, UniProt P68135)",3H-adenine nucleotide release,,60 min,"baseline: control, higher = slower release",reduction in nucleotide release,1.3 fold
cdc12 fragment G1201R/N1202P (Schizosaccharomyces pombe) (sequence not shown),ACTA1 filaments,pyrene-actin assay,,"barbed ends, rate followed not shown, with: Mg-ATP-actin",,Kd,0.0241 µM
CAPG (UniProt P40121),"ACTA1 (Oryctolagus cuniculus, UniProt P68135)",pyrene fluorescence,Mg-F-actin,"1 µM, 18 h",,critical concentration shift,0.6 µM
TLN1 ABS3 (Homo sapiens),"ACTA1 F-actin (Oryctolagus cuniculus, UniProt P68135)",optical trap,,no load,,longest binding event,< 32 ms
B1 (sevA 1-117),actin G-actin,"actin polymerization, inhibitor",,"50 nM, 14 h, capping, with: EGTA","baseline: control, higher = more F-actin",F-actin at steady state,97.5%
fus1 fragment (Schizosaccharomyces pombe) (sequence not shown),ACTA1 filaments,pyrene-actin depolymerization,,no profilin,,Kd,0.00043 µM
split GFP/TLN1 ABS3 fragment (Homo sapiens),"ACTA1 F-actin (Oryctolagus cuniculus, UniProt P68135)",optical trap,,under load,,longest binding event,< 800 ms
BNI1 fragment (Saccharomyces cerevisiae) (sequence not shown),ACTA1 filaments,pyrene-actin depolymerization,,no profilin,,Kd,0.00095 µM
"FLNA (Homo sapiens, UniProt P21333)","ACTA1 F-actin (Oryctolagus cuniculus, UniProt P68135)",co-sedimentation,,"two-site fit, apparent",,"actin per FLNa subunit, low affinity site",10.5 mol/mol

# Excerpt of the above:
Molecule,partner,test,test system,setting,how to read,endpoint,result
cdc12 fragment G1201R/N1202P (Schizosaccharomyces pombe) (sequence not shown),ACTA1 filaments,pyrene-actin assay,,"barbed ends, rate followed not shown, with: Mg-ATP-actin",,Kd,0.0241 µM
